Assay results collected from several papers.
Compare with care: the assays were run in different laboratories. Values joined by “and” are separate records of one study, mostly repeats; a detail may differ. ± gives the spread as reported.

Molecule | target or system | assay | system | setting | scale | measurement | value
insulin aspart | – | euglycaemic glucose clamp | human, adults with type 1 diabetes, up to 35 years | subcutaneous, 0.2 U/kg | – | time to early 50% GIRmax | 41.3 min
cotadutide | – | – | ob/ob mouse, AMLN diet NASH model | dose not given, terminal | – | plasma AST | 841 ± 105 U/L
QDEKVKESYV | human MAGI1-2/6 PDZ construct (MBP fusion) | automated holdup | peptide, crude extract | concentration not given, corrected by standard peak, unit not given | baseline: biotin control resin, higher = stronger binding | binding intensity | 0.079
somatropin | – | – | Turner syndrome patients | dose not given, median | – | first-year growth velocity | 7.8 cm/year
human retinal dehydrogenase 1 | – | co-immunoprecipitation | human RBC membrane | unit not given, together with: Band 3 peptide 1-56 bait | baseline: negative control | co-IP enrichment | 0
TASPAKETSF | human MAGI1-3/6 PDZ construct (MBP fusion) | automated holdup | peptide, crude extract | concentration not given, uncorrected, unit not given | baseline: biotin control resin, higher = stronger binding | binding intensity | -0.211
maraviroc | – | ELISA | HIV-infected mice, brain | i.p., 120 mg/kg twice daily, 3 weeks post infection | – | Aβ40 level | 9.33 ± 0.5 pg/µg
hemoglobin alpha | – | co-immunoprecipitation | human plasma | unit not given, together with: Band 3 peptide 1-56 bait | baseline: negative control | co-IP enrichment | 0.31
heparin sodium | – | – | healthy Chinese adult volunteers, plasma | continuous intravenous infusion, 8 IU/kg/h, day 1 to 6 of 5-day infusion, median with range | – | time to maximum prothrombin time | 1.99 h
CCT3 | – | co-immunoprecipitation | human RBC cytosol | unit not given, together with: Band 3 peptide 1-56 bait | baseline: negative control | co-IP enrichment | 0
difelikefalin | – | – | Japanese haemodialysis patients with pruritus | intravenous, 0.25 µg/kg, 8 weeks | – | PGIC minimally improved | 34.4%
human desmoplakin | – | co-immunoprecipitation | human RBC cytosol | no crosslinker, unit not given, together with: Band 3 peptide 1-56 bait | baseline: negative control | co-IP enrichment | 0
calcium | – | ion current, two-electrode voltage clamp | Xenopus oocytes | 10 mM, -80 mV, together with: niflumic acid present | – | desensitization time constant | 11.2 s and 7.6 s and 7.77 s and 4.53 s and 7.07 s
semaglutide | – | H&E histology, NASH-CRN scoring | Wistar rat, male, diet-induced obese, liver | subcutaneous, dose not given, 10 weeks treatment | – | lobular inflammation score | decreased

Repeated from above:
Molecule | target or system | assay | system | setting | scale | measurement | value
hemoglobin alpha | – | co-immunoprecipitation | human plasma | unit not given, together with: Band 3 peptide 1-56 bait | baseline: negative control | co-IP enrichment | 0.31
